Results gathered from unrelated publications.
Parts stem from different laboratories: compare values within a part only.

Set 1
Target: Histone acetyltransferase KAT6A, both winged helices, GST fusion (KAT6A, Homo sapiens, UniProt Q92794, residues 1-181)
Method: protein binding microarray
Molecule type: double-stranded DNA, one strand shown
Matrix: in vitro
Tested at: not given
Setting: 8-mer, flanks averaged, mean of 2 arrays, mostly near background
Baseline: not given
Direction: higher = stronger binding
Measurement: E-score
Residues (chain): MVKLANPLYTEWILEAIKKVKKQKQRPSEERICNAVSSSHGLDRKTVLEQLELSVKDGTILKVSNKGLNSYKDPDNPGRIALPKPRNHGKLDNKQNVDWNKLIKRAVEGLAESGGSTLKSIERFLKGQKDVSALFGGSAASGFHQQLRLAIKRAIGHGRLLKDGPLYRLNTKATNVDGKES
Strand = ACCCCGCC; result = 0.269
Strand = GATGGTCC; result = 0.0181
Strand = GTGGAGCA; result = -0.0982
Strand = GATATGAC; result = 0.00822
Strand = CAACGGGG; result = 0.0231
Strand = TCCACAGA; result = -0.218
Strand = AAATGATC; result = -0.119
Strand = ACTTATAG; result = 0.00756

Set 2
Target: Interferon regulatory factor 7, full length, phosphomimetic (IRF7, Homo sapiens, UniProt Q92985, residues 1-503, S101K/S471D/S472D/S475D/S476D/S477D/S483D/S484D/S487D)
Method: protein-binding microarray
Molecule type: double-stranded DNA, one strand shown
Matrix: in vitro
Tested at: 250 nM
Setting: 60-bp whole probe
Added: salmon DNA 0.4 mg/ml
Baseline: random background probes
Direction: higher = stronger binding
Measurement: log fluorescence
Shared flanks, not repeated: GCCTAGCAC … GTCTTGATTCGCTTGACGCTGCTG
Target sequence (chain): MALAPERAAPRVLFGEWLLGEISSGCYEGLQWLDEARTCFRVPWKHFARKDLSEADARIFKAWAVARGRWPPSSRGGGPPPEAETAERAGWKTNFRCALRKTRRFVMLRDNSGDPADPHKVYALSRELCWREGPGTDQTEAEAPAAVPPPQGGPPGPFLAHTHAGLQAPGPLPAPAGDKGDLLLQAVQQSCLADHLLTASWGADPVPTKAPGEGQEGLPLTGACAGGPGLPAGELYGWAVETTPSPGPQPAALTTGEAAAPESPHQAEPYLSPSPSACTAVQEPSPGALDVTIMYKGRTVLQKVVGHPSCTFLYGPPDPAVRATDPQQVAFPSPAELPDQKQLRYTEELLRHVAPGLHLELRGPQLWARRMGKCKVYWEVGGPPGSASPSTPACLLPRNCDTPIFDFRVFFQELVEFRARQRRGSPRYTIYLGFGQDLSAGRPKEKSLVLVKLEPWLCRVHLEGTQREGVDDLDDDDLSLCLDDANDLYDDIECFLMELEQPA
Strand = GGCGAACTGAGTATCGAGACGTGCTAG; result = -0.465 z-score
Strand = TCACTTCTCCTCTAGGTTACTGTGCTA; result = 1.09 z-score
Strand = TCAGTTTTCAGCTGTTTTACTGTGCTA; result = 0.646 z-score
Strand = TCAGTTTTTGCTTTCTTACTGTGCTAG; result = 1.2 z-score
Strand = TTGTGTCTGGGATTTTGTCCGTGCTAG; result = -1.07 z-score
Strand = GACGAGCTGGGGTATCGAGACGTGCTA; result = -0.702 z-score

Set 3
Target: Prothrombin, mature alpha-thrombin (F2, Homo sapiens, UniProt P00734)
Method: aptamer microarray, sandwich
Molecule type: DNA with 2'F-ANA
Matrix: in vitro
Tested at: 200 nM
Setting: whole 15-mer aptamer, many near background
Added: Cy3 exosite-II aptamer, 400 nM
Direction: higher = stronger binding
Measurement: mean fluorescence intensity
Strand: GGTTGGTGTGGTTGG
Modification = 2'F-ANA at 2 3 5 6 7 12 14 15; result = 53.8 a.u.
Modification = 2'F-ANA at 2 3 4 5 11 12 15; result = 153 a.u.
Modification = 2'F-ANA at 1 3 4 8 12 13; result = 312 a.u.
Modification = 2'F-ANA at 3 4 5 8 9 10 11 12 14 15; result = 57.2 a.u.
Modification = 2'F-ANA at 2 5 8 9 10 11 12 13 14 15; result = 50.5 a.u.

Other studies, line by line
Molecule = PhoQ, residues 284 288 289 292 302 303 SLSVQF; target = PhoP, residues 12 14 15 18 19 NQGLL (Escherichia coli, UniProt P23836); assay = Sort-seq, item: YFP reporter; system = E. coli; conditions = PhoQ-PhoP variant library, added: 10 µM Mg2+; how to read = baseline: high Mg2+ state, higher = stronger signaling; measurement = fold induction; result = 6.5

Excerpt of the above (set 3):
Modification = 2'F-ANA at 2 3 4 5 11 12 15; result = 153 a.u.
Modification = 2'F-ANA at 1 3 4 8 12 13; result = 312 a.u.
